{"data": "Measured values from different studies", "note": "A part holds a random share of what one study measured. Changes are numbered by the printed parent chain."}
{"data": "Set 1", "target": "MAFK, bZIP domain (human)", "method": "DHFR protein complementation", "sample": "yeast", "notes": "single substitutions, most at no-binding floor", "baseline": "wild-type JUN-FOS pair", "direction": "higher = stronger binding", "starting sequence": "JUN, bZIP domain (human); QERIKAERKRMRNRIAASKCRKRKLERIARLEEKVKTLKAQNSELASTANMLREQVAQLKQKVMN; partner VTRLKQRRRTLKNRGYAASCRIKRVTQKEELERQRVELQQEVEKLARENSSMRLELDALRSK"}
{"Change": "Q55H", "binding fitness [natural log]": -1.5}
{"Change": "A29L", "binding fitness [natural log]": -1.5}
{"Change": "L59W", "binding fitness [natural log]": -1.54}
{"Change": "A40R", "binding fitness [natural log]": -1.44}
{"Change": "T48P", "binding fitness [natural log]": -1.53}
{"Change": "A29E", "binding fitness [natural log]": -1.46}
{"Change": "M51V", "binding fitness [natural log]": -1.33}
{"Change": "K39Y", "binding fitness [natural log]": -1.28}
{"Change": "A46R", "binding fitness [natural log]": -1.48}
{"Change": "L45Y", "binding fitness [natural log]": -1.46}
{"Change": "R53Y", "binding fitness [natural log]": -1.26}
{"Change": "S43H", "binding fitness [natural log]": -1.41}
{"Change": "N42D", "binding fitness [natural log]": -1.51}
{"Change": "A49C", "binding fitness [natural log]": -1.43}
{"Change": "L52S", "binding fitness [natural log]": -1.49}
{"data": "Set 2", "target": "CCNB2, cyclin fold, Cln2 fusion (human)", "method": "yeast growth competition, sequencing", "sample": "yeast", "notes": "weak parent motif", "baseline": "not given", "direction": "higher = stronger binding", "starting sequence": "CDC6 docking peptide (human); TLKGRRLVFDNQL; partner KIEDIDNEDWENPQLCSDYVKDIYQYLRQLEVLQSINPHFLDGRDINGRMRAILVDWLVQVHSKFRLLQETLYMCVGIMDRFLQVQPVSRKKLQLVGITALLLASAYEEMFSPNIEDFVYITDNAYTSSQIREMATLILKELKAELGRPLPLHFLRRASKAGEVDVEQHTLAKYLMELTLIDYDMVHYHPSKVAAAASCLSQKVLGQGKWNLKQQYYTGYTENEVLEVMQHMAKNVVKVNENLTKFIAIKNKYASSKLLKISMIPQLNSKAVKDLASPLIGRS"}
{"Change": "G4Q", "normalised enrichment score": 0.278}
{"Change": "L7C", "normalised enrichment score": 0.0565}
{"Change": "V8Q", "normalised enrichment score": -0.488}
{"Change": "G4R", "normalised enrichment score": 0.395}
{"Change": "R6M", "normalised enrichment score": 0.432}
{"Change": "K3R", "normalised enrichment score": 0.728}
{"Change": "D10I", "normalised enrichment score": 0.766}
{"Change": "D10P", "normalised enrichment score": -0.395}
{"Change": "R5M", "normalised enrichment score": -0.13}
{"Change": "G4T", "normalised enrichment score": -0.0904}
{"Change": "G4Y", "normalised enrichment score": -0.408}
{"Change": "R6P", "normalised enrichment score": -0.921}
{"Change": "G4I", "normalised enrichment score": 0.75}
{"Change": "K3P", "normalised enrichment score": -0.17}
{"Change": "N11V", "normalised enrichment score": 0.0519}
{"Change": "L7A", "normalised enrichment score": -0.0601}
{"Change": "N11T", "normalised enrichment score": 0.174}
{"Change": "F9P", "normalised enrichment score": 0.336}
{"Change": "D10F", "normalised enrichment score": -0.118}
{"Change": "G4H", "normalised enrichment score": 0.319}
{"Change": "L2A", "normalised enrichment score": -0.0268}
{"Change": "Q12F", "normalised enrichment score": -0.217}
{"Change": "G4C", "normalised enrichment score": 0.614}
{"Change": "R6L", "normalised enrichment score": 0.369}
{"Change": "T1Q", "normalised enrichment score": -0.109}
{"data": "Set 3", "target": "Histone acetyltransferase KAT6A, both winged helices, GST fusion (KAT6A, Homo sapiens, UniProt Q92794, residues 1-181)", "method": "protein binding microarray", "molecule type": "double-stranded DNA, one strand shown", "sample": "in vitro", "concentration": "not given", "notes": "8-mer, flanks averaged, mean of 2 arrays, mostly near background", "baseline": "not given", "direction": "higher = stronger binding", "Residues (chain)": "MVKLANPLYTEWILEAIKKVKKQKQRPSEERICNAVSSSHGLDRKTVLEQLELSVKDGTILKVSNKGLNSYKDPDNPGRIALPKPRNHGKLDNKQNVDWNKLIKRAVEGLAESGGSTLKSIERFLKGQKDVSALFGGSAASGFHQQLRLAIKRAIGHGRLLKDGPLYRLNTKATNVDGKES"}
{"Oligonucleotide": "ATTAGCAC", "E-score": -0.0264}
{"Oligonucleotide": "AGTCCGTA", "E-score": 0.231}
{"Oligonucleotide": "ACAGCCAA", "E-score": -0.117}
{"Oligonucleotide": "AAACAAAA", "E-score": -0.00997}
{"Oligonucleotide": "AGCCGGGG", "E-score": 0.0611}
{"Oligonucleotide": "ACATTCGC", "E-score": 0.213}
{"Oligonucleotide": "ATGTGTCA", "E-score": -0.0941}
{"Oligonucleotide": "GGCGACAA", "E-score": 0.0968}
{"Oligonucleotide": "GAACGGGA", "E-score": 0.172}
{"Oligonucleotide": "ACAAAAAC", "E-score": 0.00877}
{"Oligonucleotide": "CGTCGACA", "E-score": 0.075}
{"Oligonucleotide": "ACTCCGGA", "E-score": 0.0403}
{"Oligonucleotide": "TACACACA", "E-score": -0.137}
{"Oligonucleotide": "CCGACCAG", "E-score": 0.0923}
{"Oligonucleotide": "ACAAGTTC", "E-score": -0.0993}
{"Oligonucleotide": "GCTACGGA", "E-score": 0.222}
{"data": "Set 4", "target": "Runt-related transcription factor 1 (RUNX1, Homo sapiens, UniProt Q01196, residues 1-453, full length assumed)", "method": "protein-binding microarray", "molecule type": "double-stranded DNA, one strand shown", "sample": "in vitro", "concentration": "not given", "notes": "k-mer, scored over probes, only values ≥0.25", "direction": "higher = stronger binding", "chain of UniProt Q01196 (whole entry, looked up)": "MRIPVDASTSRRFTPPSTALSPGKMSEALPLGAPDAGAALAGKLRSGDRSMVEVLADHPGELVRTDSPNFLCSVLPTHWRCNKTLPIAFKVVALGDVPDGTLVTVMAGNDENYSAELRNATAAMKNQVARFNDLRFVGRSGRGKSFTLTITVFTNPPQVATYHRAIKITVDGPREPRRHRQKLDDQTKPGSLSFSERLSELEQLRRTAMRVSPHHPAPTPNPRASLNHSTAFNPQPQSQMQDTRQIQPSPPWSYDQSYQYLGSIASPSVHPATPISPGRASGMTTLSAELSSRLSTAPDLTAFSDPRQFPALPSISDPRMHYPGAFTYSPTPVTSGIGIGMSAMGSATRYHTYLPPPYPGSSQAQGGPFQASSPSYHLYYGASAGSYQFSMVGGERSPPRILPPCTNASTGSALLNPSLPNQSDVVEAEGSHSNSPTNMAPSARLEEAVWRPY"}
{"Oligonucleotide": "GTTATAA", "E-score": 0.288}
{"Oligonucleotide": "AACCGCC", "E-score": 0.274}
{"Oligonucleotide": "ATACCGC", "E-score": 0.299}
{"Oligonucleotide": "ACCACAT", "E-score": 0.439}
{"Oligonucleotide": "TGGTTAA", "E-score": 0.282}
{"Oligonucleotide": "CGGTTTC", "E-score": 0.267}
{"Oligonucleotide": "TGCGGAA", "E-score": 0.269}
{"Oligonucleotide": "ACCGCGG", "E-score": 0.286}
{"Oligonucleotide": "ACCACTA", "E-score": 0.296}
{"Oligonucleotide": "AACCGCA", "E-score": 0.497}
{"Oligonucleotide": "ATTGTGG", "E-score": 0.307}
{"Oligonucleotide": "TCCGCAA", "E-score": 0.292}
{"Oligonucleotide": "CACAAAC", "E-score": 0.324}
{"Oligonucleotide": "AATGCGG", "E-score": 0.313}
{"Oligonucleotide": "AAACCAC", "E-score": 0.468}
{"Oligonucleotide": "CCACACA", "E-score": 0.32}
{"Oligonucleotide": "AAGTGGT", "E-score": 0.306}
{"note": "Excerpt of the above (set 2):"}
{"Change": "T1Q", "normalised enrichment score": -0.109}
{"Change": "D10P", "normalised enrichment score": -0.395}
{"Change": "G4Y", "normalised enrichment score": -0.408}
{"Change": "G4T", "normalised enrichment score": -0.0904}
{"Change": "R5M", "normalised enrichment score": -0.13}
{"Change": "K3R", "normalised enrichment score": 0.728}
